# Results pooled from the literature.
# Compare with care: the assays were run in different laboratories. Several values in a cell are separate wells, animals, samples, runs or records. Numbers after ± are the reported error.
Structure (SMILES),cell line,assay,test system,setting,scale,measurement,value
COc1cnc2cccc(N3CCc4c(cc(Cn5ccnc5C)cc4-c4cn(C)nc4C(F)(F)F)C3=O)c2c1,SU-DHL-5,"cell growth, inhibitor",,120 h,,EC50,17.3 nM
O=c1cc(N2CCOCC2)oc2c1ccc1ccccc12,HeLa expressing Ub(G76V)-GFP,"Ub(G76V)-GFP degradation, inhibitor, cycloheximide chase",,12 µM,,inhibition,21%
CCCCCCCCCCCCCCCC[N+](C)(C)CCN(Cc1ccc(OC)cc1)c1ncccn1,BT-12,"cell viability, MTT",,"10 µM, 72 h",,inhibition,95.5%
COC(=O)[C@]12CCC(C)(C)C[C@H]1[C@H]1C(=O)C=C3[C@@]4(C)C=C(C#N)C(=O)C(C)(C)[C@@H]4CC[C@@]3(C)[C@]1(C)CC2,HepG2,"high content imaging, refers to: DNA structure",,"24 h, distribution mode 2",,point of departure,0.891 µM
Cn1c(Nc2nc3ccc(C(F)(F)F)cc3s2)nc2cc(C(=O)NCCOCCO)ccc21,SH-SY5Y,"RNA-seq, refers to: XYLT1 mRNA",,"5 µM, 5 h",relative to: untreated cells,fold change,1.62
O=C(/C=C/C=C/C=C/C1CCCCC1)NC1=C[C@@](O)(/C=C/C=C/C=C/C(=O)NC2=C(O)CCC2=O)[C@@H]2O[C@@H]2C1=O,k029ax,"cell growth, inhibitor, CellTiter-Glo luminescence",,78 h,relative to: day 0 cell count,GI50,17400 nM
CC(=O)Nc1cccc(-n2c(=O)n(C3CC3)c(=O)c3c(Nc4ccc(I)cc4F)n(C)c(=O)c(C)c32)c1,LoVo (KRAS G13D),"cell viability, resazurin",,"1.56 nM, 72 h",relative to: DMSO,average fractional effect,18%
O=C(C[C@@H](C(F)F)n1ccc(F)n1)N1CCC(O)(Cn2cnc3c(cnn3-c3ccc(F)cc3)c2=O)CC1,CHP-212 resistant cells (pooled),annexin V-PI flow cytometry,,"0.3 µM, 48 h",,apoptotic cells (early plus late),9.54% and 10.6% and 11.8%
Clc1ccc(N/N=C(\c2ccccc2)c2ccccn2)nc1,HBL-1,,,"1 µM, 120 h",,viability,3.03%
CC(/C=C/C(=O)NO)=C\[C@@H](C)C(=O)c1ccc(N(C)C)cc1,BT-12,"cell viability, MTT",,"10 µM, 72 h",,inhibition,93.4%
Cn1nc2c3c(cccc31)C(=O)c1ccccc1-2,HeLa expressing Ub(G76V)-GFP,"Ub(G76V)-GFP degradation, cycloheximide chase",,12 µM,,inhibition,89%
CC1=NN(c2ccc(C(=O)O)cc2)C(=O)/C1=C\c1ccc(-c2cc(C)c(C)cc2[N+](=O)[O-])o1,HBL-1,,,"1 µM, 120 h",,viability,98.9%
CC[C@]1(O)C[C@H]2CN(CCc3c([nH]c4ccccc34)[C@@](C(=O)OC)(c3cc4c(cc3OC)N(C=O)[C@H]3[C@@](O)(C(=O)OC)[C@H](OC(C)=O)[C@]5(CC)C=CCN6CC[C@]43[C@@H]65)C2)C1,BT-12,"cell viability, MTT",,"10 µM, 72 h",,inhibition,88.4%
CC(C)C[C@@H](C=O)NC(=O)[C@H](CC(C)C)NC(=O)[C@H](CC(C)C)NC(=O)OCc1ccccc1,HeLa expressing Ub(G76V)-GFP,"Ub(G76V)-GFP degradation, cycloheximide chase",,10 µM,relative to: DMSO,remaining activity,6.2%
Clc1ccc(N/N=C(\c2ccccc2)c2ccccn2)nc1,CD326+ cells,annexin V flow cytometry,,"0.25 µM, 72 h",,apoptotic cells,~90%
O=C(O)CC[C@H](NC(=O)N[C@@H](CCCCNC(=O)CCCCCCC(=O)NCCCC[C@@H](NC(=O)[C@H](CCC(=O)O)NC(=O)[C@H](CCC(=O)O)NC(=O)CCC(=O)NCCCN1CC[S][Tc]2(=[O])[S]CC[N]2CC1)C(=O)O)C(=O)O)C(=O)O (stereo partly shown) [technetium-99m labelled],LNCaP,,,"25 nM, 1 h, 4 °C",,internalized activity,0.2 ± 0.04 %AD/mg protein
NC(=O)NOCCCCCCCCCC[P+](c1ccccc1)(c1ccccc1)c1ccccc1.O=C([O-])C(F)(F)F,"mouse CD4 T cells, reporter","IFNγ-YFP expression, flow cytometry",,144 h,,concentration at maximal effect,12.5 µM
CCn1cc(-c2cc(Cn3ccoc3=N)cc3c2CCN([C@@H](C)c2cc(OC)ccn2)C3=O)c(C(F)(F)F)n1,G-402,"cell growth, inhibitor",,120 h,,EC50,38.6 nM
NC(=O)c1cccnc1,HBL-1,,,"0.5 µM, 120 h",,viability,111%
COc1cc2ncnc(Nc3cccc(Cl)c3)c2cc1OC,HeLa expressing Ub(G76V)-GFP,"Ub(G76V)-GFP degradation, cycloheximide chase",,12 µM,,inhibition,16%
CCCCCCOC(=O)[C@]1(O)C[C@@H]2O[C@@]1(C)n1c3ccccc3c3c4c(c5c6ccccc6n2c5c31)C(=O)NC4,SK-OV-3,ATP,3D gellan gum culture,"1 µM, 4 days",relative to: untreated,relative cell number,67%
C=CCn1c(=O)c2cnc(Nc3ccc(N4CCN(C)CC4)cc3)nc2n1-c1ccc2c(n1)[C@@](O)(CC)CC2,NCI-H1048,flow cytometry,,concentration not given,,EdU-negative S phase mitotic cells,1.37%
CCc1cnc(N2CCC(c3nc(COc4ccc(-n5cnnn5)cc4)cs3)CC2)nc1,HEK-293T,"RNA-seq GSEA, refers to: HALLMARK_HYPOXIA",,concentration not given,direction not given,normalized enrichment score,1.55
CCn1cc(-c2cc(Cn3ccnc3)cc3c2CCN([C@H](c2cc(OC)ccn2)C2CC2)C3=O)c(C(F)(F)F)n1,EOL1,"cell growth, inhibitor",,120 h,,EC50,1140 nM
CCN(CC)Cc1ccc2cc(COC(=O)Nc3ccc(C(=O)NO)cc3)ccc2c1,BT-12,"cell viability, MTT",,"10 µM, 72 h",,inhibition,92.3%
CCC/N=C1\S/C(=C\c2ccc(OC[C@H](O)CO)c(Cl)c2)C(=O)N1c1ccccc1C,human primary astrocytes,"single-cell RNA-seq, refers to: SERPINE1 mRNA",,"concentration not given, 48 h, together with: cytokine stimulation",relative to: cytokine alone,log2 fold change,0.304
CNC(=O)c1ccc(Nc2ncc(C(F)(F)F)c(NCc3nccnc3N(C)S(C)(=O)=O)n2)cc1,BT-12,"cell viability, MTT",,"10 µM, 72 h",,inhibition,93.5%
CC[S+]([O-])c1nc(-c2ccccc2)cc(C(F)(F)F)n1 (stereo not shown),HeLa Kyoto,"RelA nuclear import, high content imaging",,"50 µM, 3 h, together with: 1 µM PMA, 60 min",,cells with nuclear RelA,8.12% and 10.7%
O=C1NC(=O)c2cc(Nc3ccc(F)cc3)c(Nc3ccc(F)cc3)cc21,HeLa expressing Ub(G76V)-GFP,"Ub(G76V)-GFP degradation, cycloheximide chase",,12 µM,,inhibition,76%
Nc1ccn([C@@H]2O[C@H](CO)[C@@H](O)C2(F)F)c(=O)n1,"PANC-1, compound-resistant","cell proliferation, CCK-8",,4 d,relative to: untreated,ED50,52.8 ± 4.9 nM
CC/C(=N\NC(=O)C(C)Nc1ccccc1)c1ccc(O)c(C)c1O (stereo not shown),SK-OV-3,Western blot,,"10 µM, 3 h, 3D gellan gum culture, unit not given",relative to: DMSO,LATS band intensity,0.71 ± 0.7
CCN(CC)Cc1ccc2cc(COC(=O)Nc3ccc(C(=O)NO)cc3)ccc2c1,HBL-1,,,"0.5 µM, 120 h",,viability,2.34%
C[C@H](Nc1ccc2c(c1)OCCn1cc(N3C(=O)OC[C@H]3C(F)F)nc1-2)C(N)=O,A2058,"FOXO1 translocation, kinase translocation reporter",,2 h,,IC50,> 3000 nM
C[C@H]1[C@@H](O)O[C@@H]2O[C@@]3(C)CC[C@H]4[C@H](C)CC[C@@H]1[C@@]24OO3,THP-1,"annexin V/PI flow cytometry, refers to: annexin V-/PI+",,"0.4 µM, 24 h",,necrotic cells,0.1%
Nc1ncnc2c1ncn2[C@@H]1O[C@H](CO)[C@@H](O)[C@H]1O,activated human T cells,refers to: adenosine,,50 µM,relative to: DMSO,log2 fold change,1.1 and 2
Cn1cc(/C=C/C(=O)c2cccc(F)c2)cc1/C=C/C(=O)NO,HBL-1,,,"1 µM, 120 h",,viability,108%
COc1cc2ncnc(Nc3ccc(O)c(Br)c3)c2cc1OC,HeLa expressing Ub(G76V)-GFP,"Ub(G76V)-GFP degradation, inhibitor, cycloheximide chase",,12 µM,,inhibition,27%
Cc1cc(NS(=O)(=O)c2ccc(NC(=O)/C(C#N)=C/c3ccc(N4CCCCC4)cc3)cc2)no1,HCT-116,"qRT-PCR, refers to: CDH1",,concentration not given,relative to: untreated,mRNA level decrease,4.32 times
Nc1cc(F)ccc1NC(=O)/C=C/c1cnn(C/C=C/c2ccccc2)c1,HBL-1,,,"0.5 µM, 120 h",,viability,108%
CC(C)[C@H](NC(=O)c1cc(Cl)ccc1OCCNC(=O)OC(C)(C)C)C(=O)Nc1ccc([N+](=O)[O-])cc1Cl,MDA-MB-231,Western blot,,"1, 5, 10 µM, 48 h",,cleaved PARP level,increased
CC[n+]1c(/C=C/N(C)c2ccccc2)n(-c2ccccc2)c2ccc(-c3nc4ccccc4s3)cc21.[I-],HeLa expressing Ub(G76V)-GFP,"Ub(G76V)-GFP degradation, inhibitor, cycloheximide chase",,12 µM,,inhibition,61%
O=C(/C=C/C#Cc1cccc(NS(=O)(=O)c2ccccc2)c1)NO,HBL-1,,,"1 µM, 120 h",,viability,5.47%
Cc1[nH]nc2ccc(-c3cncc(OC[C@@H](N)Cc4ccccc4)c3)cc12,hiPSC cardiomyocytes,CellTiter-Glo,,"concentration not given, 24 h",relative to: vehicle,ATP level,107%
Nc1ncn([C@@H]2O[C@H](CO)[C@@H](O)[C@H]2O)c(=O)n1,HBL-1,,,"0.1 µM, 120 h",,viability,128%
CCS(=O)(=O)c1nc(C2CC2)cc(C(F)(F)F)n1,HeLa Kyoto,"RelA nuclear import, high content imaging",,"15.82 µM, 3 h, together with: 1 µM PMA, 60 min",,cells with nuclear RelA,7.82% and 8.24%
Cn1cc(-c2ccc(-c3cncc(Cl)c3N3CCC4(CCNC4=O)CC3)cc2)cn1,COLO 205,"microarray, refers to: FSCN1",,"concentration not given, 2 h, gene set Fascin",relative to: untreated cells,fold change in expression,2.06
